Experimental data pooled from the literature.
Values joined by “and” are separate records of one study, mostly repeats; a detail may differ. ± gives the spread as reported.
APP Aβ40 fibrils: Amyloid-beta precursor protein, Aβ40 fibrils (APP, Homo sapiens, UniProt P05067)
APP: Amyloid-beta precursor protein (APP, Homo sapiens, UniProt P05067)
APP amyloid-beta aggregates: Amyloid-beta precursor protein, amyloid-beta aggregates (APP, Homo sapiens, UniProt P05067)
APP Aβ42 aggregates: Amyloid-beta precursor protein, Aβ42 aggregates (APP, Homo sapiens, UniProt P05067)

Structure (SMILES) = COc1cc(-c2nc3ccccc3s2)cc(CN2Cc3cccc(n3)CN(CC(=O)O)Cc3cccc(n3)C2)c1O; target = APP Aβ40 fibrils; assay = amyloid-β fibril binding, ThT fluorescence competition; setting = Aβ 2 µM, together with: ThT 1 µM; measurement = Ki; result = 320 ± 40 nM
Structure (SMILES) = Cc1noc(-c2ccc(-n3cnc(C(=O)NCc4cccs4)c3)nc2)n1; target = Amyloid-beta precursor protein, amyloid-beta (APP, Homo sapiens, UniProt P05067); assay = binding, competition binding; system = Alzheimer brain homogenate; setting = together with: [3H]PiB; measurement = Ki; result = > 1000 nM
Structure (SMILES) = COc1ccc(-c2cc(=O)c3c(O)cc(O)c(-c4cc(-c5cc(=O)c6c(O)cc(OC)cc6o5)ccc4OC)c3o2)cc1; target = APP; assay = amyloid aggregation, inhibitor, fluorescence; measurement = IC50; result = 2280 nM
Structure (SMILES) = CNc1ccc(-c2nc3ccc(OCCCN4CCN5CCN(CC4)CC(=O)[O][Al]([F])[O]C(=O)C5)cc3s2)cc1; target = Amyloid-beta precursor protein, fibril (APP, Homo sapiens, UniProt P05067); assay = ligand displacement, radioligand; measurement = Ki; result = 124 nM
Structure (SMILES) = CN(C)c1ccc(C=C(C#N)C(=O)OCC(O)CO)cc1 (stereo not drawn); target = APP amyloid-beta aggregates; assay = IgG-amyloid beta binding, inhibitor, ELISA; setting = 50 % inhibition, together with: aggregated amyloid beta; measurement = IC50; result = 82100 nM
Structure (SMILES) = COc1cc2c(c(O)c1O)C(=O)CC(c1ccccc1)O2 (stereo not drawn); target = APP; measurement = IC50; result = 14000 ± 1200 nM
Structure (SMILES) = O=C(C=Cc1ccc(O)c(OC(F)(F)F)c1)C1=C(C=Cc2ccc(O)c(OC(F)(F)F)c2)OCC1; target = APP amyloid-beta aggregates; assay = binding, thioflavin T competition; measurement = IC50; result = 250 nM
Structure (SMILES) = N#C/C(=C\c1ccc2cc(N3CCCCC3)ccc2c1)C(=O)OCC(O)CO (stereo not drawn); target = APP Aβ42 aggregates; assay = binding, fluorescence titration; setting = 5% DMSO in water, together with: aggregated Abeta42 5 µM; measurement = Kd; result = 1600 ± 200 nM
Structure (SMILES) = O=C1C=C2OC3(O)CC(=O)c4c(O)cc(O)cc4C3=C2c2cc(O)cc(O)c21 (stereo not drawn); target = APP; assay = amyloid aggregation, inhibitor, fluorescence; measurement = IC50; result = 3900 nM
Structure (SMILES) = COCCOCCOCCOC(=O)C(C#N)=Cc1ccc(C=Cc2ccc(N(C)C)cc2)cc1; target = APP amyloid-beta aggregates; assay = IgG-amyloid beta binding, inhibitor, ELISA; setting = 50 % inhibition, together with: aggregated amyloid beta; measurement = IC50; result = 33600 nM
Structure (SMILES) = COc1cc(-c2nc3ccccc3s2)cc(CN(Cc2ccccn2)Cc2ccccn2)c1O; target = APP Aβ40 fibrils; assay = binding, ThT competition; system = Aβ fibrils; setting = Aβ 5 µM, together with: ThT 2 µM; measurement = Ki; result = 180 ± 25 nM
Structure (SMILES) = COCCOCCOCCOC(=O)C(C#N)=Cc1ccc2cc(N3CCCCC3)ccc2c1; target = APP Aβ42 aggregates; assay = binding, fluorescence titration; setting = together with: pre-aggregated Aβ(1-42) 5.0 µM; measurement = Kd; result = 2500 nM
Structure (SMILES) = CN(C)c1ccc(-c2ccc3cc(OCC(O)CF)ccc3n2)cc1 (stereo not drawn); target = APP; assay = ligand displacement, radioligand; measurement = Ki; result = 26.6 nM
Structure (SMILES) = OC(Cc1cc(-c2ccc(C(O)C(F)(F)F)s2)sc1-c1ccc(-c2sc(-c3ccc(C(O)C(F)(F)F)s3)cc2CC(O)C(F)(F)F)s1)C(F)(F)F (stereo not drawn); target = Amyloid-beta precursor protein, Aβ40 aggregates (APP, Homo sapiens, UniProt P05067); assay = fluorescence; setting = Aβ aggregated 200 min; measurement = Kd; result = 3270 nM and 3300 nM
Structure (SMILES) = COc1cc(-c2nc3ccccc3s2)cc(CN2CCN(C)CCN(C)CC2)c1O; target = APP Aβ40 fibrils; assay = amyloid-β fibril binding, ThT fluorescence competition; setting = Aβ 2 µM, together with: ThT 1 µM; measurement = Ki; result = 170 ± 50 nM

For quick reference, copied from above:
Structure (SMILES) = COc1cc(-c2nc3ccccc3s2)cc(CN2Cc3cccc(n3)CN(CC(=O)O)Cc3cccc(n3)C2)c1O; target = APP Aβ40 fibrils; assay = amyloid-β fibril binding, ThT fluorescence competition; setting = Aβ 2 µM, together with: ThT 1 µM; measurement = Ki; result = 320 ± 40 nM
Structure (SMILES) = COc1cc2c(c(O)c1O)C(=O)CC(c1ccccc1)O2 (stereo not drawn); target = APP; measurement = IC50; result = 14000 ± 1200 nM
